Measured values gathered from unrelated publications.
Parts stem from different laboratories: compare values within a part only. Positions count from the first letter of the parent shown.

Set 1 — technique: aptamer microarray, sandwich; molecule type: DNA with 2'F-ANA; medium: in vitro; concentration: 200 nM; together with: Cy3 exosite-II aptamer, 400 nM; reading: higher = stronger binding; oligonucleotide: GGTTGGTGTGGTTGG
Target: Prothrombin, mature alpha-thrombin (F2, Homo sapiens, UniProt P00734)
Notes: whole 15-mer aptamer, many near background
| Modification | mean fluorescence intensity |
| --- | --- |
| 2'F-ANA at 1 9 10 13 | 70.1 a.u. |
| 2'F-ANA at 2 3 4 5 7 8 10 | 56.5 a.u. |
| 2'F-ANA at 1 2 6 7 9 11 12 13 14 15 | 57.7 a.u. |
| 2'F-ANA at 5 7 8 9 10 11 | 61.7 a.u. |
| 2'F-ANA at 1 3 4 6 7 8 10 12 | 87.2 a.u. |
| 2'F-ANA at 3 4 10 12 13 15 | 311 a.u. |
| 2'F-ANA at 1 2 6 7 8 9 10 11 12 13 | 63.4 a.u. |
| 2'F-ANA at 1 2 3 4 6 8 10 15 | 58.5 a.u. |
| 2'F-ANA at 2 4 6 7 8 10 11 13 14 15 | 57.1 a.u. |
| 2'F-ANA at 7 8 9 11 12 14 | 252 a.u. |
| 2'F-ANA at 3 4 9 10 11 12 13 | 296 a.u. |
| 2'F-ANA at 2 6 9 10 11 12 13 | 130 a.u. |
| 2'F-ANA at 2 4 6 7 8 10 12 14 | 64.7 a.u. |
| 2'F-ANA at 5 6 7 10 11 12 13 14 | 45.5 a.u. |
| 2'F-ANA at 2 3 5 6 10 12 13 14 | 53.3 a.u. |
| 2'F-ANA at 1 2 5 7 8 9 10 11 12 14 | 46.9 a.u. |
| 2'F-ANA at 2 3 4 7 8 9 11 12 | 843 a.u. |
| 2'F-ANA at 1 2 5 6 9 11 | 51.1 a.u. |
| 2'F-ANA at 1 4 5 7 9 | 163 a.u. |
| 2'F-ANA at 2 4 7 8 9 11 14 | 104 a.u. |

Set 2 — target: CCNE2, cyclin fold, Cln2 fusion (human); technique: yeast growth competition, sequencing; medium: yeast; notes: strong parent motif; relative to: not given; reading: higher = stronger binding
Starting sequence: E2F1 docking peptide (human); PPVKRRLDFETDH
| Change | normalised enrichment score |
| --- | --- |
| PPVKRRLDFHTDH [E10H] | 5.86 |
| PWVKRRLDFETDH [P2W] | 3.82 |
| PPVMRRLDFETDH [K4M] | 3.71 |
| PPVFRRLDFETDH [K4F] | 1.57 |
| PPVKRRLDFEQDH [T11Q] | 5.48 |
| PPVNRRLDFETDH [K4N] | 3.73 |
| PPVKCRLDFETDH [R5C] | 0.438 |
| PPVKRRLYFETDH [D8Y] | 6.47 |
| PPVKRRLDFEDDH [T11D] | 4.84 |
| PPVKRFLDFETDH [R6F] | 1.49 |
| PPVKRRVDFETDH [L7V] | 1.04 |
| PPVKRRLDHETDH [F9H] | 0.0205 |
| PNVKRRLDFETDH [P2N] | 5.85 |
| PTVKRRLDFETDH [P2T] | 5.52 |
| PPVKYRLDFETDH [R5Y] | -0.000545 |
| PPVKRRLDFETCH [D12C] | 6.43 |
| PPVKRRLDFEWDH [T11W] | 6.04 |
| PPVKRRLPFETDH [D8P] | 1.44 |
| PPVKRRLDFENDH [T11N] | 5.7 |

Set 3 — technique: RNA Bind-n-Seq; molecule type: RNA; medium: in vitro; concentration: 365 nM; relative to: no-protein control; reading: higher = stronger binding
Target: RNA binding protein fox-1 homolog 2, RRM domain, GST-SBP tag (RBFOX2, Homo sapiens, UniProt O43251-10, residues 100-194)
Notes: natural RNA segment, single round, ends assumed
Construct (chain): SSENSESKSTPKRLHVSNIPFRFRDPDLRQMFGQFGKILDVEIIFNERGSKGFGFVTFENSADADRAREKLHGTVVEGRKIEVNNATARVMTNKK
| Oligonucleotide | RBNS enrichment (R) |
| --- | --- |
| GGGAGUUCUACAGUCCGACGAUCGCCGCAUAUUCCCAUGGGCAUAUUCCCAUGCUUUCUCAAAUAGACUACUGUGAUAAAAAUGAACUCAAUAUGUAGUAGCUUAUACUUUUCUCCAGUAUAUUGUUGGUCACUGGAAUUCUCGGGUGCCAA | 0.564 |
| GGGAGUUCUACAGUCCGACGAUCAGAGAUGAACGAAAUCGGGAGCCCUCGCCCAAGGCUAGGGCAUCGGGGAUGGGGUGUGUGGGGAGGGGACCUGUGAAUCCUGACCACCUUGAAUCCAGAACCAGGACUUUUGGAAUUCUCGGGUGCCAA | 0.45 |
| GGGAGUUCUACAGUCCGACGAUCACCAGGGAGUUUGGUGAAGCUAAAGGAGUCAUAGGAGACUUGCAGUGGCUGGAUGUUCUCACGCCUGGCUCCGUUCUGCCUGUCUGGAGGCCUGGUCUGCUGGUCCACCUUGGAAUUCUCGGGUGCCAA | 0.385 |
| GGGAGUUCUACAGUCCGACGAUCAGGGACUGUGGCCCUGGAUUGCCCUCACUUGGGCCUCUGUCACACCGGGUUCCCCUCUGGAGCCACGGGGAACAGGGUAGGAAAAGGAGAAGAAGCACCGUGCGCAUACAUGGAAUUCUCGGGUGCCAA | 0.808 |
| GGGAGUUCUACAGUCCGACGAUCCAAGCUGAGGACCCAAAGUUGGACACAGAAAUGGUAGUGUUGGAAAGACAGACAGGCAAAGACGGCACACGUUGGGUCUGCUUCCAGUCCAUAGGCCACCAAUUCUCCUUUGGAAUUCUCGGGUGCCAA | 0.275 |
| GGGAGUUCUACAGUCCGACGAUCUGCUUACAUCUAGAUUAUCCAGCACAAUCAUAAAGUGAAUGACAAACCCUUUGAAUGAAAUUGUGGCACAAAAUCUGUUCAGGUUGGUGUACCGUGUAAAGUGGGGAUGGUGGAAUUCUCGGGUGCCAA | 0.835 |
| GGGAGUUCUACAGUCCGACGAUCUCGCUGUAAAGAAAGGCCAUGCUUUUGUGUUAGUGGAGACAGUCUAGAGUUGCUCAGAAUCUUGUAGGGUUUUCUGAUCUGGUUACCUCUAGCUGCCAUGUGGGGUCCACUGGAAUUCUCGGGUGCCAA | 0.474 |
| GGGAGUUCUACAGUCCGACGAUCACAGAACCCUUUUCCUGACUCUCAUGGAAGAUGGUGGAAGGAAAAUAGACUGUCUCAUCAACCCUCCUGUGUCCUCUGAAGCAAUCUCAGUUUUUAUUAACCACCUCUUCUGGAAUUCUCGGGUGCCAA | 0.336 |
| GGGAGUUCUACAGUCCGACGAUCUGACCUCAUCUUCCUUCUGGGUUUUGAGAACAGUGGGUGUGAAUCAGUGCUUGGCAAUCGUCCUUCUUACAGCAGUAAGCAAAAAUUAGCAAGGAACGUGUCCGCAUGGCUGGAAUUCUCGGGUGCCAA | 1 |
| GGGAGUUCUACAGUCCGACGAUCGAACCACCCAUCCCAGCUCAGCCCCAAGAACCAACCAAAGAGCCAGUCAAAAGCAAGCUGGGUUUGCAGCCCACUCCAGCCCAUGGCCUGUUGCCCAGCUCUGUAGACAUUGGAAUUCUCGGGUGCCAA | 0.394 |
| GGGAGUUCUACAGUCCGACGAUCGCCAAGAGCCGGCCGAAGCGGAGGAGGCCCAGGGCAAAGCGUCCACAACUUGCACAGCAGGCCCACCCUGCAAGGACCCCAUCAGUGUGAGCAUCGCAGUAGCCAGCCACUGGAAUUCUCGGGUGCCAA | 0.961 |
| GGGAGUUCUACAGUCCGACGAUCAAUGUGGGUUGUAAAUGUUCCCCUAACUUCUGUUUCUUCUGAAGAGAAAAUAAACCUUUUUCCCCCCAAAGUAAGGUGUGGUAUGGGUCUUUUCUUAUCGCCUUCCUCUCUGGAAUUCUCGGGUGCCAA | 0.476 |

Set 4 — technique: competition protein-binding microarray; molecule type: double-stranded DNA, one strand shown; medium: in vitro; concentration: 2 µM; together with: Pho4 competitor, 0.05 µM; reading: higher = stronger binding
Target: Centromere-binding protein 1, full length, His-tagged (CBF1, Saccharomyces cerevisiae, UniProt P17106, residues 1-351)
UniProt P17106, sequence (whole entry, looked up): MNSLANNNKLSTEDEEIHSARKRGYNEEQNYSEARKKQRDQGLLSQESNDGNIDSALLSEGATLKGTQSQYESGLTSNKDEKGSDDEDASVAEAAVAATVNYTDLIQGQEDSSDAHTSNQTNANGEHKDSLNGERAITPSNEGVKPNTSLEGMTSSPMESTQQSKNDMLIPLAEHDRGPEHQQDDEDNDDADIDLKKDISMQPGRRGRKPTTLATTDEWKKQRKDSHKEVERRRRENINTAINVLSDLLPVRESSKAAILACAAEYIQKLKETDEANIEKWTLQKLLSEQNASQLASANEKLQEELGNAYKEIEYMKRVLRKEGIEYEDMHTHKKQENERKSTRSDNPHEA
Notes: whole 60-bp probe, lowest competitor level
| Oligonucleotide | fluorescence intensity [a.u.] |
| --- | --- |
| TAAACTTCGAATTCCTTCGTGCTTTACTAAGACAAAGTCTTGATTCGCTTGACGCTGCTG | 78.3 |
| CGGGGTTAAGTTTGTCACTATACTTGCTTGCAGCAGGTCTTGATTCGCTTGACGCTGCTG | 77.8 |
| ACCAGACGAAATCGGCACGGCATTAGGAATTCGGTAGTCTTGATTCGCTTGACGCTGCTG | 67.7 |
| CTTTCCCGATCTTGTCACGAAACTTTAGCACATTTGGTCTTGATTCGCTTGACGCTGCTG | 84.3 |
| CGTCCTAGTGATTGCCAGGTGGGTGCCATGAGGAAGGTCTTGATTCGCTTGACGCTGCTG | 71.3 |
| CTGAAACAAAACGGCCACGTGCTGTTTCAGCCTTGAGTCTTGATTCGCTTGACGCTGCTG | 1760 |
| TCGCGAACCCCGTCAACCGTGATGGACGAGATATGAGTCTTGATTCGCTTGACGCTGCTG | 57.1 |
| GGTTTCTGAGGCTCGCACAGGAGGCACCCCAGTTCTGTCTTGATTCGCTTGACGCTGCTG | 66.1 |
| GTCTTGTCTCATTTTCACGTGTTTTTCCCCACTTCAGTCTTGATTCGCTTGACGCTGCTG | 737 |
| AACATTATGGAAGTCCATGTGAATAATTCACTCAAGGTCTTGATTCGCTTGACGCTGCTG | 107 |
| TGATCGCGCAGGATGGGACAATTAAACGATCTTTGCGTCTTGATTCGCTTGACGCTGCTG | 71.8 |
| CAACAGCAGCAACATCACACGCAGAATTCACAACCAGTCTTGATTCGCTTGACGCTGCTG | 123 |
| TGCGCAACAACTTCGCACGTGTTTTTATGTCTAGAAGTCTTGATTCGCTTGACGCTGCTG | 1750 |
| CGTCCTAGTGATTTTCACGTGCAGTCCATGAGGAAGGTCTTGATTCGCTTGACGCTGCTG | 1140 |
| ATGAAGTTATTTCCAATCGTGCCAGTGAGATCCTAGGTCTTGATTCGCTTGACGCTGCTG | 78.8 |
| CTGTGGGAGAGCCAGTTCGTGCCAGCCGTTATTTCTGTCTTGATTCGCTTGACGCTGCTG | 71.5 |
| GATATGTTTCTAATGCGCGTGTGAAGGGAATTTCGGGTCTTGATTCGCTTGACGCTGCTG | 89.4 |

Repeated from above (set 1):
| Modification | mean fluorescence intensity |
| --- | --- |
| 2'F-ANA at 1 9 10 13 | 70.1 a.u. |
| 2'F-ANA at 2 6 9 10 11 12 13 | 130 a.u. |
| 2'F-ANA at 1 2 5 7 8 9 10 11 12 14 | 46.9 a.u. |
| 2'F-ANA at 5 7 8 9 10 11 | 61.7 a.u. |
| 2'F-ANA at 2 4 6 7 8 10 11 13 14 15 | 57.1 a.u. |
